Experimental data collected from several papers.
Compare with care: the assays were run in different laboratories. pIC50: −log10 of the molar value.

SMILES = O=C(Cc1cccc2ccccc12)N[C@H]1CCOC1=O; target = ExpR2 (Pectobacterium carotovorum); assay = cellulase activity, agonist; test system = Pectobacterium carotovorum, single-ExpR2 strain; conditions = 200 µM, 4 h; scale = reference: OHHL; quantity = activation; result = 95%
SMILES = CCOP(=S)(OCC)Oc1ccc([N+](=O)[O-])cc1; target = nanobody A4; assay = binding, ic-ELISA; quantity = pIC50; result = 6.72
SMILES = O=C(Cc1ccc(Br)cc1)N[C@H]1CCOC1=O; target = ExpR2 (Pectobacterium carotovorum); assay = cellulase activity, antagonist; test system = Pectobacterium carotovorum, single-ExpR2 strain; conditions = 5 µM, 4 h, added: OHHL 5 µM; quantity = inhibition; result = 62%
SMILES = O=C(Nc1cccnn1)N1CCN([C@@H]2CCOc3cc(C(F)(F)F)ccc32)CC1; target = central benzodiazepine receptor; assay = binding; conditions = 20 µM; quantity = inhibition; result = 6%
SMILES = Nc1nc2c(ncn2[C@@H]2O[C@@H]3COP(=O)(O)O[C@H]4[C@@H](O)[C@H](n5cnc6c(N)ncnc65)O[C@@H]4COP(=O)(O)O[C@@H]2[C@@H]3O)c(=O)[nH]1; target = STING (human); assay = agonist, confocal microscopy; test system = HeLa Kyoto; conditions = concentration not given; quantity = time to STING Golgi translocation; result = ~30 min
SMILES = O=C(Cc1cccc(Cl)c1)N[C@H]1CCOC1=O; target = ExpR2 (Pectobacterium carotovorum); assay = cellulase activity, agonist; test system = Pectobacterium carotovorum, single-ExpR2 strain; conditions = 200 µM, 4 h; scale = reference: OHHL; quantity = activation; result = 81%
SMILES = CCOP(=S)(OCC)SCn1c(=O)oc2cc(Cl)ccc21; target = nanobody A4; assay = ic-ELISA; conditions = concentration not given; scale = reference: coumaphos IC50 over compound IC50, molar basis; quantity = cross-reactivity; result = 3%
SMILES = COc1cc(Nc2ncc(F)c(Nc3ccc4c(n3)NC(=O)C(C)(C)O4)n2)cc(OC)c1OC; target = GABAA receptor chloride channel; assay = binding; conditions = added: TBPS; quantity = pIC50; result = < 5.00
SMILES = CCCCCC(=O)CC(=O)N[C@H]1CCOC1=O; target = ExpR2 (Pectobacterium carotovorum); assay = cellulase activity, agonist; test system = Pectobacterium carotovorum, single-ExpR2 strain; conditions = 200 µM, 4 h; scale = reference: OHHL; quantity = activation; result = 78%
SMILES = N.N.[Cl][Pt][Cl]; target = biotinylated rabbit IgG; conditions = 11-point dose-response, protein A and streptavidin binding; quantity = maximum response; result = -95.5%
SMILES = CCOP(=S)(OCC)Oc1ccc(Cl)cc1Cl; target = nanobody A4; assay = binding, ic-ELISA; conditions = added: H1-OVA coating antigen; quantity = IC50; result = > 4000 ng/mL
SMILES = Cc1cc(-n2c(=O)[nH]c(=O)n(C)c2=O)ccc1Oc1ccc(SC(F)(F)F)cc1; target = biotinylated rabbit IgG; conditions = 11-point dose-response, protein A and streptavidin binding; quantity = maximum response; result = -13.8%
SMILES = CCOP(=S)(OCC)Oc1ccc2c(C)c(Cl)c(=O)oc2c1; target = nanobody A4; assay = binding, ic-ELISA; conditions = added: H1-OVA coating antigen; quantity = IC50; result = 89.1 ng/mL
SMILES = O=C(CCc1ccc(Br)cc1)N[C@H]1CCOC1=O; target = ExpR2 (Pectobacterium carotovorum); assay = cellulase activity, antagonist; test system = Pectobacterium carotovorum, single-ExpR2 strain; conditions = 5 µM, 4 h, added: OHHL 5 µM; quantity = inhibition; result = 66%
SMILES = CCOP(=S)(OCC)SCCSCC; target = nanobody A4; assay = binding, ic-ELISA; quantity = pIC50; result = < 5.00
SMILES = COC(=O)Nc1nc2ccc(C(=O)c3ccccc3)cc2[nH]1; target = biotinylated rabbit IgG; conditions = 11-point dose-response, protein A and streptavidin binding; quantity = maximum response; result = -3.4%

Excerpt of the above:
SMILES = Cc1cc(-n2c(=O)[nH]c(=O)n(C)c2=O)ccc1Oc1ccc(SC(F)(F)F)cc1; target = biotinylated rabbit IgG; conditions = 11-point dose-response, protein A and streptavidin binding; quantity = maximum response; result = -13.8%
